Published values collected from several papers.
Each line is one published result; not all experiments were run side by side. “And” joins repeats or separate records; there may be more than shown. ≈ marks a conversion by molar mass, not a printed value.

The Emax of Cc1ccc(/C=N/N=C(\S)Nc2cccc(S(=O)(=O)N(C)C)c2)o1 is reported as 50% (Mus musculus; gene silencing, high-content imaging; LDR reporter GFP cells; 30 h, retest run 2).
With COC(=O)c1cc(N(C)S(=O)(=O)c2ccc(OC)cc2)cc(N(C)S(=O)(=O)c2ccc(OC)cc2)c1 the selectivity index was over 1.7 (Leishmania infantum; intracellular amastigote growth; U-937 macrophages and HeLa; relative to: IC50 HeLa over IC50 amastigotes).
Under “median fecal consistency score”, CN(C(=O)c1ccn2ncc(-c3ccc(C(N)=O)cc3)c2c1)c1ccc(C#N)cn1 is recorded as 2 (Cryptosporidium parvum; neonatal calf; treatment period, scale 1 to 3; direction not given).
For Cc1ccc(Nc2ncnc3ccc(-c4ccc(S(=O)(=O)N5CCOCC5)cc4)cc23)cc1, the EC50 was 450 nM (Leishmania major; parasite growth, resazurin; promastigote).
C=CCO/N=C(\C(=O)N[C@@H]1C(=O)N(OS(=O)(=O)O)C1(C)C)c1csc(N)n1 has an MIC of at most 0.03 µg/mL (Proteus vulgaris; agar dilution; ATCC 29905, susceptible).
The upregulated genes of CN(C)CCNC(=O)c1cccn2c(=O)c3cc4ccccc4cc3nc12 is reported as 19 genes (Trypanosoma brucei; RNA-seq; Lister 427 bloodstream form; 2 × EC50, 4 h, log2 FC 1, FDR 0.05; relative to: untreated).
Fc1cccc(COc2ccc(Nc3ncnc4ccc(-c5cccc(CN6CCCCC6)c5)cc34)cc2Cl)c1 has an EC50 of 2500 nM (Leishmania major; parasite growth, resazurin; promastigote).
For C=C(NC(=O)c1csc(-c2nc3c(cc2O)-c2nc(cs2)C(=O)NC(C(C)O)C(=O)NC(=C(C)OC)c2nc(cs2)C(=O)NC2c4nc(cs4)C(=O)NC(COC(=O)c4c5c6c(cccc6n4O)COC(=O)C(OC4CC(C)(O)C(N(C)C)C(C)O4)C2OC5)c2nc-3cs2)n1)C(N)=O (centres unmarked), the MIC50 was 0.0156 µg/mL (≈ 0.0109 µM) (Streptococcus pneumoniae; penicillin-resistant, 10 isolates; serum 75%).
CC(=O)OC[C@H]1O[C@@H](Sc2sc(C(=O)c3ccc(Br)cc3)c(N)c2-c2nc3ccccc3s2)[C@H](OC(C)=O)[C@@H](OC(C)=O)[C@@H]1OC(C)=O: “viral titre reduction” 30% (human adenovirus type 7; plaque reduction; non-toxic concentration).
The MIC50 of COc1ccc(NC(=O)COc2cccc(OCC(C)C)c2)cc1 is reported as 2 µg/mL (≈ 6.07 µM) (Nakaseomyces glabratus; microbial growth, broth dilution; MY1381).
The plaque reduction of CC(C)n1ncc2c(C(=O)NCC3CNC3)cc(C3CC3)nc21 is reported as 74.5% and 77.4% (Enterovirus D68; viral replication; RD, US/MO/14-18947; 1000 nM).
Cc1cnc(CNC(=O)c2c(=O)c3ccc(N4CCCN(C)CC4)nc3n3c2sc2ccccc23)cn1 gave a downregulated genes of 314 genes (Trypanosoma brucei; RNA-seq; Lister 427 bloodstream form; 2 x EC50, 4 h, log2 FC ±1, FDR 0.05; relative to: untreated).
FC(F)(F)c1cccc(CNc2nc(NC3CCN(Cc4ccccc4)CC3)c3nc[nH]c3n2)c1 — result for “log2 fold change”: 1.25 (Cryptococcus neoformans; RNA-seq, measured: ARG1 (CNAG_06500); wild type; 48 µg/mL, 3 h; relative to: untreated wild type).
With O=S(=O)(c1ccc(-c2ccc3ncnc(Nc4ccc(OCc5cccc(F)c5)c(Cl)c4)c3c2)cc1)N1CCNCC1 the EC50 was over 15000 nM (Leishmania major; parasite growth, resazurin; promastigote).
CC(C)n1ncc2c(C(=O)NC[C@@H](C)N)cc(C3CC3)nc21 gave a plaque reduction of 56.4% and 63.9% (Enterovirus D68; viral replication; RD, US/MO/14-18947; 300 nM).
O=S(=O)(c1ccc(-c2ccc3ncnc(Nc4ccc(OCc5cccc(F)c5)c(Cl)c4)c3c2)cc1)N1CCCCC1 gave an EC50 of over 15000 nM (Leishmania major; parasite growth, resazurin; promastigote).
CN(Cc1ccc(C2(C(F)(F)F)CCC2)cc1)Cc1cccc2ccccc12 gave an inhibition zone of 28 mm (Trichophyton rubrum; microbial growth, disc diffusion; ATCC28188; 0.016 µg/mL, 6 days).
COC(=O)C1=CO[C@@H](C)[C@@H]2Cn3ccc4c5ccccc5nc-4c3C[C@H]12 has an IC50 ratio of 1 (Plasmodium falciparum; growth; 3D7; 96 h, together with: 200 µM IPP; relative to: with IPP over without IPP).
For COc1cccc(/C=N/Nc2nc(Nc3ccccc3)nc(-n3nc(C)cc3C)n2)c1O, the Emax was 104% (Mus musculus; gene silencing, high-content imaging; LDR reporter GFP cells; 30 h, confirmation, mean of two runs).
O=C(Oc1cc(OC(=O)c2cc(O)c(O)c(O)c2)c2ccccc2c1)c1cc(O)c(O)c(O)c1 has an IC50 of 1570 nM (Human alphaherpesvirus 2; viral replication, inhibitor, qPCR; HeLa).
The AC50 of CCN(CC)CCCNC(=O)CSc1c2c(nc3cc(Cl)ccc13)CCCC2 is reported as 10000 nM (Mus musculus; gene silencing, high-content imaging; LDR reporter GFP cells; retest run 2).
The MIC of CC1(C)[C@H](NC(=O)/C(=N\OCC(=O)N2CCC[C@@H]2C(=O)O)c2nsc(N)n2)C(=O)N1OS(=O)(=O)O is reported as 0.5 µg/mL (≈ 0.934 µM) (Proteus vulgaris; agar dilution; ATCC 29905, susceptible).
For CCCC(=O)N1CCN(c2ccc(NC(=O)c3ccc([N+](=O)[O-])o3)cc2Cl)CC1, the AC50 was 3160 nM (Mus musculus; gene silencing, high-content imaging; LDR reporter GFP cells; retest run 2).
CC1(C)[C@H](NC(=O)/C(=N\OC2(C(=O)O)CCCCC2)c2csc(N)n2)C(=O)N1OS(=O)(=O)O has an MIC of 4 µg/mL (≈ 7.91 µM) (Shigella flexneri; agar dilution; ATCC 12022, susceptible).
With COc1ccc(NC(=O)CSc2nc3c(oc4ccccc43)c(=O)n2Cc2ccco2)cc1Cl the Emax was 73% (Mus musculus; gene silencing, high-content imaging; LDR reporter GFP cells; 30 h, retest run 2).
Under “viral titre reduction”, Nc1c(C(=O)c2ccc(Br)cc2)sc(S)c1-c1nc2ccccc2s1 is recorded as 20% (human adenovirus type 7; plaque reduction; non-toxic concentration).
CN(C)c1cccc(-c2ccc3ncnc(Nc4ccc(OCc5cccc(F)c5)c(Cl)c4)c3c2)c1 has an EC50 of over 15000 nM (Leishmania major; parasite growth, resazurin; promastigote).
For CC(C)(C)NCC(SS(=O)(=O)O)c1ccccc1 (centres unmarked), “male worm burden reduction” read 92% (Schistosoma mansoni; mice; 600 mg/kg single dose, 1056 h, dosed day 15, perfused 44; relative to: vehicle).
The IC50 of CCCOC(=O)N1c2cc(CNC)ccc2[C@H](NC(=O)C(=O)Nc2ccc(Cl)c(F)c2)[C@H]1CNC(=N)N is reported as 528 nM (HIV-1; pseudovirus infection, Env pseudovirus neutralisation; TZM-bl, clade C).
The MIC of C[C@@H]1C(=O)O[C@@H](C)/C=C/C=C\[C@@H](C)[C@@H]2C=C[C@@H]3C[C@@]4(C)O[C@H]4[C@@H](C)[C@H]3[C@@H]2C(=O)C(Cl)(Cl)C1=O is reported as 0.05 µg/mL (≈ 0.101 µM) (Staphylococcus aureus; MRSA clinical isolate; resistant OXA/ERY/TET).
With CC1(C)[C@H](NC(=O)/C(=N\OCc2cc(=O)c(O)cn2O)c2csc(N)n2)C(=O)N1OS(=O)(=O)O the MIC was 0.125 µg/mL (≈ 0.241 µM) (Shigella flexneri; agar dilution; ATCC 12022 susceptible).
CN1CCN(S(=O)(=O)c2ccc(-c3ccc4ncnc(Nc5ccc(OCc6ccccc6)cc5)c4c3)cc2)CC1 gave an EC50 of 1500 nM (Leishmania major; parasite growth, resazurin; promastigote).
For CCc1nnc(NC(=O)c2cccc(C(=O)Nc3nnc(CC)s3)n2)s1, the AC50 was 25100 nM (Mus musculus; gene silencing, high-content imaging; LDR reporter GFP cells; retest run 2).
Cc1c(CN(C)C(=O)/C=C/c2cnc3c(c2)CC(N)C(=O)N3)oc2ccccc12 (centres unmarked) has an MIC of 16 µg/mL (≈ 41 µM) (Klebsiella pneumoniae; broth microdilution; AR-0347).
With C#CCO/N=C(\C(=O)N[C@@H]1C(=O)N(OS(=O)(=O)O)C1(C)C)c1nsc(N)n1 the MIC was 8 µg/mL (≈ 19.1 µM) (Shigella flexneri; agar dilution; ATCC 12022, susceptible).
The plaque reduction of [2H]C([2H])(N)C([2H])([2H])NC(=O)c1cc(C2CC2)nc2c1cnn2C(C)C is reported as 0% and 2.14% (Enterovirus D68; viral replication; RD, US/MO/14-18947; 30 nM).
Fc1cccc(COc2ccc(Nc3ncnc4ccc(-c5ccc(N6CCCCC6)cc5)cc34)cc2Cl)c1 gave an EC50 of over 15000 nM (Leishmania major; parasite growth, resazurin; promastigote).
CC1(C)[C@H](NC(=O)/C(=N\OC2(C(=O)O)CCCC2)c2csc(N)n2)C(=O)N1OS(=O)(=O)O has an MIC of 0.5 µg/mL (≈ 1.02 µM) (Shigella flexneri; agar dilution; ATCC 12022, susceptible).
For Fc1cccc(COc2ccc(Nc3ncnc4ccc(-c5ccc(CN6CCOCC6)cc5)cc34)cc2Cl)c1, the EC50 was 2700 nM (Leishmania major; parasite growth, resazurin; promastigote).
Under “viral titre reduction”, CC(=O)OC[C@H]1O[C@@H](Sc2sc(C(=O)c3ccc(C)cc3)c(N)c2-c2nc3ccccc3s2)[C@H](OC(C)=O)[C@@H](OC(C)=O)[C@@H]1OC(C)=O is recorded as 10% (human adenovirus type 7; plaque reduction; non-toxic concentration).
CC(C)n1ncc2c(C(=O)NCC(C)(C)N)cc(C3CC3)nc21 has a plaque reduction of 98.7% and 99.1% (Enterovirus D68; viral replication; RD, US/MO/14-18947; 1000 nM).
The MIC of C=CCO/N=C(\C(=O)N[C@@H]1C(=O)N(OS(=O)(=O)O)C1(C)C)c1nsc(N)n1 is reported as 1 µg/mL (≈ 2.38 µM) (Shigella flexneri; agar dilution; ATCC 12022, susceptible).
The AC50 of CC1=C/C(=N\N=C(/S)Nc2cccnc2)CC(C)(C)C1 is reported as 2000 nM (Mus musculus; gene silencing, high-content imaging; LDR reporter GFP cells; retest run 1).
With CC1(C)C(NC(=O)C(=NOCC(=O)N2CC3CCCC3C2C(=O)O)c2csc(N)n2)C(=O)N1OS(=O)(=O)O (centres unmarked) the MIC was 2 µg/mL (≈ 3.48 µM) (Shigella flexneri; agar dilution; ATCC 12022, susceptible).
Cc1ccc(C(=O)c2sc(S)c(-c3nc4ccccc4s3)c2N)cc1 — result for “viral titre reduction”: 10% (human adenovirus type 7; plaque reduction; non-toxic concentration).
The Emax of O=[N+]([O-])C(=C\Nc1ccccc1O)/C=N/c1ccccc1O is reported as 17% (Mus musculus; gene silencing, high-content imaging; LDR reporter GFP cells; 30 h, retest run 1).
For C[C@@H]1NC2(C(=O)N(CC(=O)O)C1=O)C1CC3CC(C1)CC2C3 (some centres unmarked), the IC90 was 255000 nM (Trypanosoma brucei; parasite growth; pH 7.4, blood stage).

Some of these lines once more:
CC1(C)[C@H](NC(=O)/C(=N\OC2(C(=O)O)CCCC2)c2csc(N)n2)C(=O)N1OS(=O)(=O)O has an MIC of 0.5 µg/mL (≈ 1.02 µM) (Shigella flexneri; agar dilution; ATCC 12022, susceptible).
The MIC of C[C@@H]1C(=O)O[C@@H](C)/C=C/C=C\[C@@H](C)[C@@H]2C=C[C@@H]3C[C@@]4(C)O[C@H]4[C@@H](C)[C@H]3[C@@H]2C(=O)C(Cl)(Cl)C1=O is reported as 0.05 µg/mL (≈ 0.101 µM) (Staphylococcus aureus; MRSA clinical isolate; resistant OXA/ERY/TET).
The IC50 of CCCOC(=O)N1c2cc(CNC)ccc2[C@H](NC(=O)C(=O)Nc2ccc(Cl)c(F)c2)[C@H]1CNC(=N)N is reported as 528 nM (HIV-1; pseudovirus infection, Env pseudovirus neutralisation; TZM-bl, clade C).
CN(Cc1ccc(C2(C(F)(F)F)CCC2)cc1)Cc1cccc2ccccc12 gave an inhibition zone of 28 mm (Trichophyton rubrum; microbial growth, disc diffusion; ATCC28188; 0.016 µg/mL, 6 days).
The AC50 of CCN(CC)CCCNC(=O)CSc1c2c(nc3cc(Cl)ccc13)CCCC2 is reported as 10000 nM (Mus musculus; gene silencing, high-content imaging; LDR reporter GFP cells; retest run 2).
The MIC of C=CCO/N=C(\C(=O)N[C@@H]1C(=O)N(OS(=O)(=O)O)C1(C)C)c1nsc(N)n1 is reported as 1 µg/mL (≈ 2.38 µM) (Shigella flexneri; agar dilution; ATCC 12022, susceptible).
CC(=O)OC[C@H]1O[C@@H](Sc2sc(C(=O)c3ccc(Br)cc3)c(N)c2-c2nc3ccccc3s2)[C@H](OC(C)=O)[C@@H](OC(C)=O)[C@@H]1OC(C)=O: “viral titre reduction” 30% (human adenovirus type 7; plaque reduction; non-toxic concentration).
